Experimental data from different studies.
A part holds a random share of what one study measured.

Sample 1
Target: RING finger protein unkempt homolog, zinc fingers 1-6, GST-SBP tag (UNK, Homo sapiens, UniProt Q9C0B0, residues 30-357)
Technique: RNA Bind-n-Seq
Molecule type: RNA
Sample: in vitro
Concentration: not given
Setting: RNA with constant flanks, human and mouse sites, ends assumed
Relative to: input RNA pool
Reading: higher = stronger binding
Residues (chain): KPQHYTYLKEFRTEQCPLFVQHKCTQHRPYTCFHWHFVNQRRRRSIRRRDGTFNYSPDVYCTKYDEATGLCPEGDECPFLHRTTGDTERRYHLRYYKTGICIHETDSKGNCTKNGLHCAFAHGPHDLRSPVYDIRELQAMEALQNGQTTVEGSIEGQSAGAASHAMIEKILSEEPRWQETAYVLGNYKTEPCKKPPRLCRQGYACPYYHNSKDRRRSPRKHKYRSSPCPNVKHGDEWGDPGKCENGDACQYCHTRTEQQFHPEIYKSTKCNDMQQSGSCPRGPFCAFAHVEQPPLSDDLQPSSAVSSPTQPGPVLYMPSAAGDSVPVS
Strand | bound/input enrichment [ratio]
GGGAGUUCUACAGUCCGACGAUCAAAAUUGAUUGUUAUUUACUCCCAGAUCCUCUUGCAGACCCAGAAUUAUCAGGAACAUAGCUCUGUGAUUCAUGAGUGUCCCCAUACUGAUGAAUUGGAGCAUCCAUAUGGAAAGCAAAGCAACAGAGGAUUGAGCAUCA | 0.18
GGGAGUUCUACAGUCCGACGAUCGCAAGAGUUCUGUCCUUUGGCUUGUAUAGGUUAUCUGUUGCUGUGUAAGAAACCACCUGCAAUGGCGAGGGCUUCUCUCGGUGGGGAUUCAGGAGCUGCUGAGCAUGGAGACUUUAGCAUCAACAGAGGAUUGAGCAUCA | 0.474
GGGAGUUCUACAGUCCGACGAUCAAUCGUUGUAUGGUAGAAAUUGUCCAGAAAUAUGACCCAGAAAAAGAUGAGUGGCAUAAAGUUUUUGAUCUUCCAGAGUCACUUGGUGGCAUUCGAGCCUGUACACUCACAGUUUUUCCACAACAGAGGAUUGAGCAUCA | 0.0991
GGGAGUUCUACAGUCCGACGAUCGACGCUAGCGAUGGGACCGUGCGACUUCGUGGACUGCCAUUUGGUUGCAGCAAAGAGGAAAUAGUUCAGUUCUUUCAAGGUAUAUUGAGAUCUUCAGGAGUAGCAGGAGUGAAAUCAAAGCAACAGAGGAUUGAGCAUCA | 0.319
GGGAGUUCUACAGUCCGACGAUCGGCCAGGAGCGAUUUCACACCAUCACAACCUCCUACUACAGAGGAGCAAUGGGCAUCAUGCUAGUGUAUGACAUCACCAACGGUAAAAGCUUUGAGAACAUCAGCAAGUGGCUUAGAAACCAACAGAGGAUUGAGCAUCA | 0.272
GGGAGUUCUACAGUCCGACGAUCCAUUCUAGGCCAAGUGAGAACUCCUCAGUUCCUUGGGACAUCUCCACCUCUAAAGAGGAAAAUUUAUCCACAGUUGAAGAAGAAACUGAUUACAAAUCACCAUCAGCUGAUGACAAAGGGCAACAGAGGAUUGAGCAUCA | 0.114
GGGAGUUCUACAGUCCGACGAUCUUGCCCAGAUAGGGUCCCCUUCUCAUUCACAAAGUGCCCCCUCCAUGUCCCUGGACCCUUAGGAUACCCCCUGGGGCCCCCAAGUCAGAGACUGUCUGACUCAGGUUAUGCCUACAGAGUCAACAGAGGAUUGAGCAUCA | 0.408
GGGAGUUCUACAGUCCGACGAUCUUUCACUUUUUUUUUUAGUGGUUUAUAACACUCUGGUCUUCCCUUCAAAUCGUGUAUGCAAACAGGAACACAUUUAAUGUGACUCAACUGGAAACCGGUGCUCAGCAGUUAGGUGUAACACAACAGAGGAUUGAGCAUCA | 1.15
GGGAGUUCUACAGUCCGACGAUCUUACCAUCUGGCACACCUCAGAGUUUACCUAAAGAAGAUGAUAAGACAACCAAAACAAUAAAAGAACAGCCACAGCCACCAUGCACAGCAAAACCUGAUCAGGUGGAACCUGGGAAAGAACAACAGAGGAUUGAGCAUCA | 0.205
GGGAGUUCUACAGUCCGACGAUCGAAGAUGGAGAAGAUCAACCAAAGCAAGUUUAUGUAGACAAAUUGGCUGAAUUAAAAAGUUUAGGUCAACCCAUUAAGACACGGUUCCAGGAAUCUGAAGAAAGACCAAAAUUAUUUGAACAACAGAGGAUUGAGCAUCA | 0.323
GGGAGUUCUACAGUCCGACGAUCGAACUCACAUCUCUAAAAGAAGCUACUCCUUCCCCAAUCAGUGAGUCUCAUAGUGAUGAGACCAUUCCCAGUGAUAGUGGAAUUGGAACAGAUAAUAACAGCACAUCAGACAGGGCAGAGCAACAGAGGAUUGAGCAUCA | 0.312

Sample 2
Target: Sal-like protein 4, full length isoform B (SALL4, Homo sapiens, UniProt Q9UJQ4-2, residues 1-616)
Technique: universal PBM
Molecule type: double-stranded DNA, one strand shown
Sample: in vitro
Concentration: not given
Setting: 8-mer, flanks averaged, mean of replicates
Reading: higher = stronger binding
Construct (chain): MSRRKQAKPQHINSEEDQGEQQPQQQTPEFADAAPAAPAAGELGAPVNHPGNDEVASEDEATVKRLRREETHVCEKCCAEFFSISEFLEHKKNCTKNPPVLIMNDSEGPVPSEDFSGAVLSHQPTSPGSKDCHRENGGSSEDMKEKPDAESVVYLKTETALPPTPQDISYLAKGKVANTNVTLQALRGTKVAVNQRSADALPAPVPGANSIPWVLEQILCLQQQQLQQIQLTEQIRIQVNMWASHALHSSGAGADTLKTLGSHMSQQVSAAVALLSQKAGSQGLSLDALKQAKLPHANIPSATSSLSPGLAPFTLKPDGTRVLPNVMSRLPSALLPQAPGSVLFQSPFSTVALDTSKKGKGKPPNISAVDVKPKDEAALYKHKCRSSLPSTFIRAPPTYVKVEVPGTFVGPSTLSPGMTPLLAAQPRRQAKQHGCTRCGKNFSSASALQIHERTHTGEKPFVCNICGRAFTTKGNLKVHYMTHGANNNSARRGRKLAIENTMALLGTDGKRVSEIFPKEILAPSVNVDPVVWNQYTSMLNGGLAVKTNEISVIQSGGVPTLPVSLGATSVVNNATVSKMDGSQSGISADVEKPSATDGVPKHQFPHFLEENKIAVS
Strand | E-score
CGATCCCA | -0.118
CCGACCCG | -0.33
ACCCCGCC | -0.178
AACGTGTG | 0.143
CGGGCCTA | -0.358
CCTTTGAA | -0.0187
CATCTTCA | 0.0001
GGAATCTA | 0.0858
CCATACGA | 0.128
CGGCGCAA | -0.254
CCTCGATA | 0.119
ACCTGTCG | -0.0487
AGCTTGTA | 0.0773
AAGACACT | 0.048
CATAGTGG | 0.0176
GACGCAAA | -0.258
AGGACGCG | -0.153
CAGGCTGG | -0.29
CTGTTGAC | -0.0503
CCGCGCAA | -0.0876
ATCTGTGG | -0.206
CCCGGAAC | -0.337
ACGGCGCG | -0.115
AAGGCGAC | -0.169
CACCTACG | -0.169

Sample 3
Target: RNA binding protein fox-1 homolog 2, RRM domain, GST-SBP tag (RBFOX2, Homo sapiens, UniProt O43251-10, residues 100-194)
Technique: RNA Bind-n-Seq
Molecule type: RNA
Sample: in vitro
Concentration: 365 nM
Setting: natural RNA segment, single round, ends assumed
Relative to: no-protein control
Reading: higher = stronger binding
Construct (chain): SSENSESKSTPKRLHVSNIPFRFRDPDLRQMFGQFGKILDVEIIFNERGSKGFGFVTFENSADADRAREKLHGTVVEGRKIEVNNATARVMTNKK
Strand | RBNS enrichment (R)
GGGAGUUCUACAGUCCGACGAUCGUUUAGUGAAAACUAGAGAAACACAAUAAGCAAAUCACUUGAAGGCUGAGAUGAUUGAACUGAAAGUUCCCAUAGCGUGGAUGAAACCGAGCAGCAGAGCAGCAGGACAUUGGAAUUCUCGGGUGCCAA | 0.648
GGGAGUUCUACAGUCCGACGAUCCCCUGGGCCCGGGUUGCUAAGCAUUAAAAGCUUGCCUUUCUCCCUGCCCUUGCUCUGUUUCUGCUCCUCACCGGCUGUCAUUACAUGCUACACUGAGGCUUUAAAAACACUGGAAUUCUCGGGUGCCAA | 0.227
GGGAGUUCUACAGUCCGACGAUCGCCUGCUCUUUUUGAAGCAGCUGAUUGGAGAGUAAAGAUUUUCAUUCAAUAAAGCUAAACCUCAGGGUCCAGUUUCUUGUGUUCUUGAGAAGCCAGGCAACUGCUUGGAGUGGAAUUCUCGGGUGCCAA | 0.2
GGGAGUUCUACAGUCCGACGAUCACGGGAGGAAAAGGCAUUUCCAGCCCAGAACAAGGUCUAAUGCCAAUAAAUGGGAGGAAUGGGUGUAGAGUUGAUGCAGCCAAGAAUGUCCGUCCUCUGGGCGGCACAAGUGGAAUUCUCGGGUGCCAA | 0.413
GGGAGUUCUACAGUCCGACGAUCUCAUGAGUUAGUUAUGCAGCAAGUCCCUAUAUACCUAGAAAUGCUCUUGUCAGAAGUGUCACUGCCAAGGGACCAGAGAGAGGCUGCUAAGAGCCUGGACAUGCCUACCCUGGAAUUCUCGGGUGCCAA | 0.283
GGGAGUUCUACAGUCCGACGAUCCCGUGUCUACACGAAGCACCCAGUUGACAUCCGACUUGUUUUUGAGACGGGGGUCUCACUUAGCUGUGAGUGGCCUUGAACUGACCCUUCCACCUUCAUUUCCCAAGUGCUGGAAUUCUCGGGUGCCAA | 0.38
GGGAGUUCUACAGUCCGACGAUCCUCACAUCUUCCCAGGCUGCCUUUUCUUCCAAGUUUCACCUUUCCUCCCAGCAGAAAGCUCUGCUUGGCUUUUGGUGCACUGCUCACCCCCAGCUCCACUGGCCCAAGUCUGGAAUUCUCGGGUGCCAA | 0.269
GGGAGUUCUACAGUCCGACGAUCAUCUGGAGAGGUCAGAAUGGAACUACCUCAGUUGGCACAAACAGAUCAUGGCUCCUAUCAGUCUCAGAUUCCAGAUCUAGCAUUCCAGAUCUGAAUUUCAGAUUCAGAUCUGGAAUUCUCGGGUGCCAA | 0.422
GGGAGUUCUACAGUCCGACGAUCAAUGAUUUGGACAAGCUCCUGUGUGUGCUGAGACCUGGCUGGCCAGCUGCUAGAGGGGAAAAACAAUUAAGACAAUGGAAAAGGAAAAAGGAAUGAAGGAACCUCCCUCCUGGAAUUCUCGGGUGCCAA | 1.23

Sample 4
Target: Fragile X messenger ribonucleoprotein 1, C-terminal low-complexity region (Fmr1, Mus musculus, UniProt P35922)
Technique: RNA Bind-n-Seq
Molecule type: RNA
Sample: in vitro
Concentration: 200 nM
Setting: whole 134-nt RNA, ends assumed
With: 150 mM LiCl
Relative to: input library
Reading: higher = stronger binding
All molecules: 7-deaza-guanosine replaces G
Strand | log2 enrichment
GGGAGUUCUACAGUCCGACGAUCCUCAAGUCCUGUGCUACACAUCGUAUGUACCGAAUCGGGAAGGAAGGGGAAGGGAAAGUAUUAUGUUACGCCGUUCGGAUCUGCACUUCCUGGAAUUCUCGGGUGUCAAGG | -0.636
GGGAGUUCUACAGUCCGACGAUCAGUCCUGUGCUACACAUCGUAUGUACCGAAUCGGGAAAAAGGGAGGGUUUUUUUGGGAAAGUAUUAUGUUACGCCGUUCGGAUCUGCACUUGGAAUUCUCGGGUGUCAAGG | -2.06
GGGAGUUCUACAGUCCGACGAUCGUCCUGUGCUACACAUCGUAUGUACCGAAUCGGUUUUUUUGGAAAAAAAGGAAAAAGGAAAGUAUUAUGUUACGCCGUUCGGAUCUGCACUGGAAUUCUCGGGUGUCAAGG | -2.55
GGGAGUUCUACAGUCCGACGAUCUCCUGUGCUACACAUCGUAUGUACCGAAUCGGGGCCCCCCGGCCCCCCGGGCCCCCCGGAAAGUAUUAUGUUACGCCGUUCGGAUCUGCAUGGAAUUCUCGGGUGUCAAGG | 0.0738
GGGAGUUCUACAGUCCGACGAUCCAAGUCCUGUGCUACACAUCGUAUGUACCGAAUCGGGAAAGGAAAGGGGAAAGGGAAAGUAUUAUGUUACGCCGUUCGGAUCUGCACUUCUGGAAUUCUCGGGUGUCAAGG | -0.245
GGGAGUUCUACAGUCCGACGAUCGUCCUGUGCUACACAUCGUAUGUACCGAAUCGGUUUUUUUGGUUUUUGGUUUUUUUGGAAAGUAUUAUGUUACGCCGUUCGGAUCUGCACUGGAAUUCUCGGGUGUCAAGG | -1.98
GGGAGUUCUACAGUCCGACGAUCAGUCCUGUGCUACACAUCGUAUGUACCGAAUCGGGAAAAAGGGUUUUUUUGGGUGGGAAAGUAUUAUGUUACGCCGUUCGGAUCUGCACUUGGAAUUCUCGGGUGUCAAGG | -2.61
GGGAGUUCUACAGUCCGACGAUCCCUCAAGUCCUGUGCUACACAUCGUAUGUACCGAAUCGGGAAGGAAGGGAAGGAAAGUAUUAUGUUACGCCGUUCGGAUCUGCACUUCCAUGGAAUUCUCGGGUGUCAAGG | -1.45
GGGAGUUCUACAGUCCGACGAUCUGGCCCUGGUGGCAUGCGGGGAGGAUGAGGUGGCCUCAUGGAUCGUGGUGGUCCCGGUGGAAUGUUCAGAGGUGGCCGUGGUGGAGACAGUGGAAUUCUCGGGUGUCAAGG | -0.128
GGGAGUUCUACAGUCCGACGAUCUGGUUAGUCAACUACUUUGGUUCCUUAUCAGUAGAAGACUCCCUAGAAUGUCUCAGAGCCAUGCUGUCUGCCAACAUCCGUCAGAAUCUGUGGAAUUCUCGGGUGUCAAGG | 0.0392
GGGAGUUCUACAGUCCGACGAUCUAACUUUAGAGGAGGAUCUGAUGGAUAUGGCAGUGGACGUGGAUUUGGGGAUGGCUAUAAUGGGUAUGGAGGAGGACCUGGAGGUGGCAAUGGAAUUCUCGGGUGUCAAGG | -0.584
